Measured values from different studies.
Parts stem from different laboratories: compare values within a part only. Substitutions count along the parent as printed.

Study 1 — method: competition protein-binding microarray; form: double-stranded DNA, one strand shown; sample: in vitro; concentration: 2 µM; together with: Pho4 competitor, 0.05 µM; reading: higher = stronger binding; endpoint: fluorescence intensity
Target: Centromere-binding protein 1, full length, His-tagged (CBF1, Saccharomyces cerevisiae, UniProt P17106, residues 1-351)
Chain of UniProt P17106 (whole entry, looked up): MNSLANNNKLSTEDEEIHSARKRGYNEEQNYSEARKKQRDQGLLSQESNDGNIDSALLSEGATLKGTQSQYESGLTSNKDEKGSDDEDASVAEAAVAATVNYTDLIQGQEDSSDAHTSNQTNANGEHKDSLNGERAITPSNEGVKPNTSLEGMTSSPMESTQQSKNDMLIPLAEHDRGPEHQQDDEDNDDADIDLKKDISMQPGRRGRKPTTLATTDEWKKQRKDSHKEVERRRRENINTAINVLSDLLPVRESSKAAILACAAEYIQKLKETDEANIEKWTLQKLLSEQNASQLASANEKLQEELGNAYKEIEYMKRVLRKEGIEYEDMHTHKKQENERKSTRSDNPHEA
Setting: whole 60-bp probe, lowest competitor level
GTCTTGTCTCATTGCCTCGTGGGTGTCCCCACTTCAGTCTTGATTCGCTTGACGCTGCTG: 92.1 a.u.
AAATTACTAAGTTGTCACTGAACTTACCCCGTATGAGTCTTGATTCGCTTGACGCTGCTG: 71 a.u.
TTCATCGAATGCTTGCACATGCCAATGCACAGACAAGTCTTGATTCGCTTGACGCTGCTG: 96 a.u.
CCGAAGCAAATGATGGCCGTGACGGCAGCACAATAGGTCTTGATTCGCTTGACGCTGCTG: 69.2 a.u.
GGAAGAAGCATCTCACGCATGGAAAACAATTGACCTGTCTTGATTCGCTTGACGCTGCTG: 75.7 a.u.
AAAGCGGTAATTTGAACGGTGGGTGCAGATATCTATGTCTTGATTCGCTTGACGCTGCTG: 82.3 a.u.
CTTCTGTAAATTTGGCTGGTGGGTGGACGCGCCCCGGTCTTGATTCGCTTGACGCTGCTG: 97.3 a.u.
AAATTACTAAGTTGTCACTTGACTTACCCCGTATGAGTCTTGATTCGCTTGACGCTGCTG: 161 a.u.
CGCTGCAGCCGCTGCCACGCGTTCCCCGCCCGAGCCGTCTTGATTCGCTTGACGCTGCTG: 63.6 a.u.
CTTTCCCGATCTTTTCACGTGACCTTAGCACATTTGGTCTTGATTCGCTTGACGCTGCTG: 7560 a.u.
TCCGCGATCGCCGGCCACGGGCCGTCGGCGGCTGTTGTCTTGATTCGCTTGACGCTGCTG: 53.1 a.u.
AAAGCGGTAATTTGTTCGGTGGGTGCAGATATCTATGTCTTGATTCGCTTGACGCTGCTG: 63.6 a.u.
TGCTTATGGAGGTCCCACGTGCTTTTATCCGACAGCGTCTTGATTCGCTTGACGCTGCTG: 1030 a.u.
TGCGCAACAACTTTTCACGTGCGCTTATGTCTAGAAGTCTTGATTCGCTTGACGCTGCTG: 977 a.u.

Study 2 — method: RNA Bind-n-Seq; form: RNA; sample: in vitro; concentration: 1 µM; setting: whole 134-nt RNA, ends assumed; together with: 150 mM KCl; baseline: input library; reading: higher = stronger binding; endpoint: log2 enrichment
Target: Ras GTPase-activating protein-binding protein 1, RRM domain (G3BP1, Homo sapiens, UniProt Q13283)
Chain of UniProt Q13283 (whole entry, looked up): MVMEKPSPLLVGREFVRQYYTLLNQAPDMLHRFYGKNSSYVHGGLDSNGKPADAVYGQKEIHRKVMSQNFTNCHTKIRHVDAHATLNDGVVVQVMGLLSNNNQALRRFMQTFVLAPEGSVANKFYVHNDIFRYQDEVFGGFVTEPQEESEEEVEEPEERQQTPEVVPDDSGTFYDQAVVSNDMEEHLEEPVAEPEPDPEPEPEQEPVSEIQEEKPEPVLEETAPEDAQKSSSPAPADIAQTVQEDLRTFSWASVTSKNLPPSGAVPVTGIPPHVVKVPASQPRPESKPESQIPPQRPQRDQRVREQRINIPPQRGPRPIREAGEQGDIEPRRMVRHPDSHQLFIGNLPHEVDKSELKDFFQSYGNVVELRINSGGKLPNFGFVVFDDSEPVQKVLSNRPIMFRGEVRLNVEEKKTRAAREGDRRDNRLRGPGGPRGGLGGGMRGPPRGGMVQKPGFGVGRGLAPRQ
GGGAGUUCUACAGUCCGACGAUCUGGGAGGUCGAUUUUGUUUAUUUUUUUAGCUCAUUUCCAGGGGUGGGAAUUUUUUUUUAAUAUGUGUCAUGAAUAAAGUUGUUUUUGAAAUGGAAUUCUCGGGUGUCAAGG: 1.35
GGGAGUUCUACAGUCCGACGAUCCCUGUGCUACACAUCGUAUGUACCGAAUCGGGGAAAAAAAGGAAAAAAAGGAAAAAAAGGGAAAGUAUUAUGUUACGCCGUUCGGAUCUGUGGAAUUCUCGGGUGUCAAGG: 0.101
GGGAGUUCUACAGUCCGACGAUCUCCUGUGCUACACAUCGUAUGUACCGAAUCGGAAAAAGGGGAAAAAGGGGAAAAAGGGGAAAGUAUUAUGUUACGCCGUUCGGAUCUGCAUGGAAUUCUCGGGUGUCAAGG: 0.0707
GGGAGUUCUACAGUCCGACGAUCCUCAAGUCCUGUGCUACACAUCGUAUGUACCGAAUCGGGCCGGGGCCGGCCGGAAAGUAUUAUGUUACGCCGUUCGGAUCUGCACUUCCAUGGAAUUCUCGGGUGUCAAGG: -0.282
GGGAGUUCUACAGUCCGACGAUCUCCUGUGCUACACAUCGUAUGUACCGAAUCGGGUUUUUGGGUUUUUUUGGGAAAAAGGGAAAGUAUUAUGUUACGCCGUUCGGAUCUGCAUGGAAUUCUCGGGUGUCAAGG: 0.0527
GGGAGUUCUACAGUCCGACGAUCGCAGGAAGUAAAAACAAAUGGAAAUGCUUCGGAUAGUGGCAGGGGUGGGGGUUGCUAAGGAAAGGGUGGGAUGGGAGUGGGUAAACAGUUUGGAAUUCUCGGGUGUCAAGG: 0.46
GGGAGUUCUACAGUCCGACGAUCUGGCCCUGGUGGCAUGCGGGGAGGAAGAGGUGGCCUCAUGGAUCGUGGUGGUCCCGGUGGAAUGUUCAGAGCUGGCCGUGGUGGAGACAGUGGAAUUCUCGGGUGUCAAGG: 2.27
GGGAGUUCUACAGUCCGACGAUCCAAGUCCUGUGCUACACAUCGUAUGUACCGAAUCGGAGGAAAAAGGAAAAAAAGGAAAGUAUUAUGUUACGCCGUUCGGAUCUGCACUUCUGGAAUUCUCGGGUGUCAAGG: -0.0326
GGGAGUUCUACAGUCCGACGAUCAAGUCCUGUGCUACACAUCGUAUGUACCGAAUCGGGGCCCGGCCCGGGGCCCGGGGAAAGUAUUAUGUUACGCCGUUCGGAUCUGCACUUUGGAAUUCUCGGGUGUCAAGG: -0.898
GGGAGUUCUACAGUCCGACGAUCCAAGUCCUGUGCUACACAUCGUAUGUACCGAAUCGGGUUUGGGUGGGAAAAAGGGAAAGUAUUAUGUUACGCCGUUCGGAUCUGCACUUCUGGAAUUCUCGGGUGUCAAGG: 0.803
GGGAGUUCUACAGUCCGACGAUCGCAGGAAGUAAAAACAAAUGGAAAUGCUUCGGAUAGUGGCAGGGGUGGGGGUUGCUAAGGAAAGGGUGGGAUGGGAGAAAGUAAAGAGUUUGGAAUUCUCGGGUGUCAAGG: 0.687

Study 3 — method: DHFR PCA, deep sequencing; sample: yeast; together with: (+)-ABA 200 µM; baseline: wild-type fitted maximum; reading: higher = stronger binding; endpoint: relative binding score
Target: ABI1, truncated, D143A, DHFR fusion (Arabidopsis thaliana)
Setting: methotrexate growth selection, single substitutions
Starting sequence: PYL1, truncated, DHFR fusion (Arabidopsis thaliana); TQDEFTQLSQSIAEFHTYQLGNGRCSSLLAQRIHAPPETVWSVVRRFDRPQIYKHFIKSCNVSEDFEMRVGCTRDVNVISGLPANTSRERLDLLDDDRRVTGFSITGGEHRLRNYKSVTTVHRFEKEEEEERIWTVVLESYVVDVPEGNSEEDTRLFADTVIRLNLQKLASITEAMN; partner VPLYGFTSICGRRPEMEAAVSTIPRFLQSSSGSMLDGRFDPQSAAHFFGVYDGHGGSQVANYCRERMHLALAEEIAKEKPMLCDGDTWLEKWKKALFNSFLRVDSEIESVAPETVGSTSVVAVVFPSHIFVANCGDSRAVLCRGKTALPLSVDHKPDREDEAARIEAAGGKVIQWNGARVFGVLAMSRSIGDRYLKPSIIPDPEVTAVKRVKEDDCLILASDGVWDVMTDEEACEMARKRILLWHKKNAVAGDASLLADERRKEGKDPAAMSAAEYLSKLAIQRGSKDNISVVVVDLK
F47D: -1.12%
E139Q: 99.4%
W41Y: 60.7%
A35D: -1.1%
E174M: 81.3%
G108C: 39.9%
V121D: -9.99%

Single results of other studies
PhoQ, residues 284 288 289 292 302 303 WVSSAF
fold induction (PhoP, residues 12 14 15 18 19 NFCKL (Escherichia coli, UniProt P23836); Sort-seq, refers to: YFP reporter; E. coli; PhoQ-PhoP variant library, together with: 10 µM Mg2+; baseline: high Mg2+ state, higher = stronger signaling): 23.4

Repeated from above (study 1):
TTCATCGAATGCTTGCACATGCCAATGCACAGACAAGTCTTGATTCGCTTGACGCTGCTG: 96 a.u.
CCGAAGCAAATGATGGCCGTGACGGCAGCACAATAGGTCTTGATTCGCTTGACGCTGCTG: 69.2 a.u.
GGAAGAAGCATCTCACGCATGGAAAACAATTGACCTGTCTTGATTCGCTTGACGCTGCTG: 75.7 a.u.
AAAGCGGTAATTTGAACGGTGGGTGCAGATATCTATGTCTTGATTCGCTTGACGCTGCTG: 82.3 a.u.
CTTCTGTAAATTTGGCTGGTGGGTGGACGCGCCCCGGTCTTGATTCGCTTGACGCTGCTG: 97.3 a.u.
